Assay results of several laboratories.
± gives the spread as reported. Converted amounts (≈) assume the structure as drawn.

SMILES	tested on	test	system	setting	how to read	endpoint	value
CNC(=O)c1cc(Oc2ccc(NC(=O)Nc3cc(C(C)(C)C)nn3-c3ccc4ncccc4c3)c(F)c2)ccn1	–	refers to: worst grade 3	human	oral, dose not given, cycles 1 and 2, Medium Cmax subgroup	–	patients with nervous system disorder AE	7%
Nc1nnc(-c2cccc(Cl)c2Cl)c(N)n1	–	–	human, plasma	outliers excluded	relative to: baseline	QRS change slope	0.0179 % per µg/mL
O=C(Nc1nc2cccc(-c3ccc(CN4CCS(=O)(=O)CC4)cc3)n2n1)C1CC1	–	refers to: blood calcium increased	rheumatoid arthritis patients	oral, 75 mg once daily, 4 weeks, any relatedness	–	treatment-emergent adverse events	0%
C[C@H]1O[C@@H](O[C@H]2[C@@H](O)C[C@H](O[C@H]3[C@@H](O)C[C@H](O[C@H]4CC[C@@]5(C)[C@H](CC[C@@H]6[C@@H]5C[C@@H](O)[C@]5(C)[C@@H](C7=CC(=O)OC7)CC[C@]65O)C4)O[C@@H]3C)O[C@@H]2C)C[C@H](O)[C@@H]1O	–	refers to: thirst	healthy men	oral, dose not given, 8 days, treatment-emergent, crossover trial	–	subjects with adverse event	0%
NC(CO)(CO)CCc1ccc(Sc2cccc(OCc3ccccc3)c2)cc1Cl	–	–	human, supine	oral, 3 mg, 0 to 312 h, with: cyclosporin 100 mg	–	pulse rate AUEC, geometric mean	18800 h×bpm
Cc1cc(-c2nccc3c2ccn3CC(=O)Nc2ccc(-c3cnccn3)cn2)ccn1	–	–	human	15 mg once daily, multiple ascending dose	–	nervous system disorders	33.3%
Cc1cc(-c2nnc(N)nc2-c2ccc(F)cc2)cc(Cl)n1	–	–	human, post-IO NSCLC	oral, 100 mg, phase Ia/Ib, any grade	–	patients with treatment-related AE	94.1%
CCN1/C(=C/C(C)=O)Sc2ccc(F)cc21	–	–	cynomolgus monkey	oral, 10 mg/kg, 24 h post-dose	–	systolic blood pressure	116 ± 4 mmHg
NC(=O)N1c2ccccc2C=Cc2ccccc21	–	refers to: gingival bleeding	human male	oral, dose not given, AEs, treatment-related, on drug, CTCAE	–	adverse events incidence	0%
CN[C@H](CC(C)C)C(=O)N[C@H]1C(=O)N[C@@H](CC(N)=O)C(=O)N[C@H]2C(=O)N[C@H]3C(=O)N[C@H](C(=O)N[C@H](C(=O)O)c4cc(O)cc(O)c4-c4cc3ccc4O)[C@H](O)c3ccc(c(Cl)c3)Oc3cc2cc(c3O[C@@H]2O[C@H](CO)[C@@H](O)[C@H](O)[C@H]2O[C@H]2C[C@](C)(N)[C@H](O)[C@H](C)O2)Oc2ccc(cc2Cl)[C@H]1O	–	Welch's t-test	C57BL/6N mice, faeces	oral, 1 vs 20 mg/mL	relative to: high dose over low dose	dose-normalised Cmax	no effect
CC(C)(C)c1ccc(O)c(CN(Cc2cc(C(C)(C)C)ccc2O)C2CCC(NC(N)=O)CC2)c1 (stereo not drawn)	–	–	C57BL/6 mice, male, plasma	intraperitoneal, 25 mg/kg, single dose	–	dose-normalised Cmax	145 ng/mL per mg/kg
CC(C)Oc1c(NC(=O)c2ccc(NC(=O)[C@H](CC(N)=O)NC(=O)c3cc(F)c(/N=N/c4c(F)cccc4F)c(F)c3)cc2)ccc(C(=O)N/N=C/c2ccc(C(=O)O)s2)c1O	–	absorbance	DMSO	30 °C, PSS to ground state relaxation	–	thermal half-life	5.7 h
O=C(N[C@H](Cc1c[nH]c2ccccc12)C(=O)Nc1ccncc1)c1ccc(N2CCN(c3ccc(F)c(F)c3)CC2)cc1F	–	–	Swiss Webster mouse, female, muscle	oral, 50 mg/kg, 8 h, 20% HPβCD vehicle	–	concentration	60 nM
Cl.[2H]C([2H])([2H])CC(=O)c1cnc(NC(=O)C2CC2)cc1Nc1cccc(-c2ncn(C([2H])([2H])[2H])n2)c1OC	–	–	human, fed, multiple dose	oral, 60 mg once daily, tablet, day 1, geometric mean	–	AUC(0-tau)	2930 ng·h/mL
COc1nnc2ccc(N3CCC(c4ccc(OCCN5CCN(C)C(=O)[C@H]5C)cc4)CC3)nn12	–	–	patients, plasma	oral, 20 mg twice daily, single dose, monotherapy	–	terminal half-life	2.28 h
COc1ccc([C@@H](O)c2cc(-c3ncnc4cc(N5CCOCC5)ccc34)c(F)cc2Cl)nn1	–	–	locally advanced rectal cancer patients	250 mg, with: capecitabine and radiotherapy	–	blood lymphatic disorder TEAE	67%
CNCc1ccc(-c2[nH]c3cc(F)cc4c3c2CCNC4=O)cc1	–	–	human patients	oral, 360 mg twice daily, all grades	–	diarrhoea incidence	12.5%
C[C@H]1CN(C(=O)CC#N)[C@]12CCN(c1ncnc3[nH]ccc13)C2	–	IL-4 secretion, inhibitor	human whole blood	–	–	IC50 corrected by blood/plasma ratio	0.024 µg/mL
COc1ncc(-c2nc3c(n2C(C)C)[C@H](c2ccc(Cl)cc2)N(c2cc(Cl)cn(C)c2=O)C3=O)c(OC)n1	–	–	human patients, plasma	oral, 1 mg, cycle 1 day 1, low-dose	–	geometric mean Cmax	7.9 ng/mL
CCc1cc(C(=O)NC)c2nccc(N3CCc4c(cc(Cn5ccnc5)cc4-c4cn(C)nc4C(F)(F)F)C3=O)c2c1	–	–	Sprague Dawley rat	oral, 50 mg/kg once daily, 7 days	relative to: vehicle	spleen weight change	-7.94%
O=C(O)CCC(=O)O.[2H]C([2H])([2H])Oc1cc(C)c2[nH]ccc2c1CN1CC[C@@H](C2CC2)C[C@H]1c1ccc(C(=O)O)cc1	–	multiple ascending dose	healthy Chinese subjects	200 mg once daily	–	subjects with sinus bradycardia TEAE	12.5%
O=C(Nc1cnccc1Cl)N1CCN(Cc2ccc3c(c2)OC(F)(F)O3)CC1	–	–	young men, plasma	oral, 75 mg once daily, day 10, normalized to 10 mg	–	dose-normalized Cmax	126 ng/mL
C=CC1=C(C)c2cc3[nH]c(cc4nc(cc5[nH]c(cc1n2)c(C)c5CCC(=O)O)C(CCC(=O)O)=C4C)c(C)c3C=C	Genome polyprotein, NS3 helicase domain (Hepatitis C virus genotype 1b, UniProt Q9WMX2)	DNA binding, inhibitor	hepatitis C virus	100 µM, with: Cy5-dT15 DNA	–	inhibition	140%

SMILES	tested on	test	system	setting	how to read	endpoint	value
O=C(c1cccnc1-c1ccncc1)N1CCC(O)(Cc2ccccc2)CC1	–	–	healthy Japanese adults, plasma	oral, 300 mg twice daily, day 21	–	AUCtau/dose	6.73 ng·h/mL/mg
CC(C)(C(=O)N1CCOc2c(C#N)cncc2C1)C(F)F	–	refers to: Arthralgia	human	oral, 15 mg twice daily, 14 days, multiple ascending dose	–	subjects with adverse event	12.5%
CO[C@@H]1[C@H](OC(=O)N2CC(CCN3CCOCC3)C2)CC[C@]2(CO2)[C@H]1[C@@]1(C)O[C@@H]1CC=C(C)C	–	–	humans	subcutaneous, 0.2 mg twice weekly for 4 weeks, day 28	relative to: baseline	D-dimer	-0.03 ± 0.05 mg/dL
CN1CCN(C(=O)CN(C)S(=O)(=O)c2ccc3ccccc3c2)CC1	CDK2 (Homo sapiens, UniProt P24941)	binding	–	–	–	Kd	> 100 µM
C[Si](C)(C)O[Si](C)(C)O[Si](C)(C)C	–	–	–	–	–	slope B, log KOA vs 1/T	1950
CNC(=O)c1cccc(-c2ccc([C@@H](O)[C@H]3O[C@H](CO)[C@@H](O)[C@H](O)[C@@H]3O)c(C)c2)c1	–	–	male Sprague-Dawley rat, urine	oral, 10 mg/kg, 24 h, mean	relative to: dose	urinary recovery	0.19%
O=C1NCCc2nc(OCc3cccc(F)c3)ccc21	–	refers to: Salivation	Sprague-Dawley rat, male	oral, 100 mg/kg, 1 h, score 0 none to 2 full	direction not given	Irwin test score	0
Cn1cc(Nc2nccc(-c3ccc4c(c3)CN(C3COC3)CC[C@H]4NC(=O)c3cn(C(C)(C)C)nn3)n2)cn1	–	–	human, whole blood	150 mg twice daily, day 14	relative to: pre-dose baseline	transitional B cell count change	-25.4%
C=CC(=O)NC1CCN(c2ncc3ncnc(Nc4ccc(Oc5ccc6c(c5)ncn6C)c(C)c4)c3n2)CC1	–	shake flask	aqueous buffer	24 h, pH 3.6, 37 °C	–	aqueous solubility	23 µg/mL (≈ 42.9 µM)
CC(=O)Nc1cccc(-c2nnc(SCC(=O)Nc3ccc(C(C)=O)cc3)n2C)c1	Cyclin-dependent kinase 2, with cyclin A (CDK2, Homo sapiens, UniProt P24941)	–	–	–	–	Kd	> 100 µM
Cn1cc(-c2ccc(-c3cncc(Cl)c3N3CCC4(CCNC4=O)CC3)cc2)cn1	COLO 205	microarray, refers to: E2F1	–	concentration not given, 6 h	relative to: untreated cells	fold change in expression	-1.85
CC(C)C[C@H](NC(=O)C[C@H](O)[C@H](CC(C)C)NC(=O)[C@H](Cc1c[nH]cn1)NC(=O)CNC(=O)[C@@H](NC(=O)[C@H](C)NC(=O)[C@H](Cc1c[nH]c2ccccc12)NC(=O)[C@H](CCC(N)=O)NC(=O)[C@@H](Cc1ccccc1)NC(=O)COCCOCCNC(=O)CCC(C(=O)O)N1CCN(CC(=O)O)CCN(CC(=O)O)CC1)C(C)C)C(N)=O (stereo partly drawn) [lutetium-177 labelled]	–	–	female BALB/c nu/nu mice, kidneys	intravenous, 50 pmol, 24 h	–	tissue uptake	2.1 ± 0.5 %ID/g
O=C(O)CCCCCCCCCCCCCCC(=O)O	–	–	human, plasma	endogenous control diurnal	relative to: daily mean concentration	relative peak deviation	91.9 ± 16.1%
O=C(O)CCCOc1ccc([18F])cc1-c1cc(-c2ccccc2C(F)(F)F)n(-c2ccccc2)n1	–	gamma counting	male ddY mice, lung	intravenous, 2.1 MBq, 15 min	–	radioactivity uptake	0.47 ± 0.07 SUV
N#CCNC(=O)c1ccc(-c2ccnc(Nc3ccc(N4CCOCC4)cc3)n2)cc1	–	–	healthy human volunteers, plasma	oral, dose not given, with: multiple-dose rifampin	relative to: compound alone	AUC0-last ratio	89.5%
COc1ccc2c(=O)n(C)c(-c3ccccc3)nc2c1	–	–	Sprague-Dawley rat, male, kidney	oral, 30 mg/kg, 0.25 h	relative to: kidney over plasma	tissue/plasma ratio	4.72
N#Cc1ccc2c(c1)[C@H]1CCCN(C(=O)c3ccc4[nH]cnc4c3)[C@H]1C2	–	–	human, male	360 mg, day 7	–	DHEA-S level	4.7 µmol/L
Cc1c(-c2ccc(N3CCc4cccc(C(=O)Nc5nc6ccccc6s5)c4C3)nc2C(=O)O)cnn1CC12CC3(C)CC(C)(C1)CC(OCCNCC[C@H](O)CO)(C3)C2	–	–	beagle dog, male, anaesthetised	intravenous infusion, 0.3 mg/kg/min, 120 min	relative to: vehicle	mean arterial pressure change	-36%
NC1(C(=O)N[C@@H](CCO)c2ccc(Cl)cc2)CCN(c2nc[nH]c3nccc2-3)CC1	–	–	metastatic CRPC patients	480 mg b.i.d., grade 3 to 4, treatment-related, with: enzalutamide 160 mg daily	–	incidence of Anaemia	0%
Cc1ccc(Sc2ccccc2N2CCNCC2)c(C)c1	–	–	healthy adult men	oral, 10 mg single dose, treatment-emergent adverse events	–	eczema incidence	0%
N=C(N)NCCNC(=O)C1(Nc2ccccc2)CCN(Cc2ccccc2)CC1	–	–	Sprague-Dawley rats, both sexes, plasma	intravenous, 2.5 mg/kg, mean of both sexes	–	mean residence time	0.1 h
C=CC(=O)Nc1cc(Nc2nccc(-c3cn(C4CC4)c4ccccc34)n2)c(OC)cc1N(C)CCN(C)C	–	–	BALB/c nude mouse, LU0387 xenograft, serum	oral, 40 mg/kg	–	ALT activity	36.9 ± 4.51 U/L

Some of these lines once more:
SMILES	tested on	test	system	setting	how to read	endpoint	value
O=C(Nc1cnccc1Cl)N1CCN(Cc2ccc3c(c2)OC(F)(F)O3)CC1	–	–	young men, plasma	oral, 75 mg once daily, day 10, normalized to 10 mg	–	dose-normalized Cmax	126 ng/mL
C=CC1=C(C)c2cc3[nH]c(cc4nc(cc5[nH]c(cc1n2)c(C)c5CCC(=O)O)C(CCC(=O)O)=C4C)c(C)c3C=C	Genome polyprotein, NS3 helicase domain (Hepatitis C virus genotype 1b, UniProt Q9WMX2)	DNA binding, inhibitor	hepatitis C virus	100 µM, with: Cy5-dT15 DNA	–	inhibition	140%
O=C(c1cccnc1-c1ccncc1)N1CCC(O)(Cc2ccccc2)CC1	–	–	healthy Japanese adults, plasma	oral, 300 mg twice daily, day 21	–	AUCtau/dose	6.73 ng·h/mL/mg
CC(C)(C(=O)N1CCOc2c(C#N)cncc2C1)C(F)F	–	refers to: Arthralgia	human	oral, 15 mg twice daily, 14 days, multiple ascending dose	–	subjects with adverse event	12.5%
CO[C@@H]1[C@H](OC(=O)N2CC(CCN3CCOCC3)C2)CC[C@]2(CO2)[C@H]1[C@@]1(C)O[C@@H]1CC=C(C)C	–	–	humans	subcutaneous, 0.2 mg twice weekly for 4 weeks, day 28	relative to: baseline	D-dimer	-0.03 ± 0.05 mg/dL
CN1CCN(C(=O)CN(C)S(=O)(=O)c2ccc3ccccc3c2)CC1	CDK2 (Homo sapiens, UniProt P24941)	binding	–	–	–	Kd	> 100 µM
